Measured values from different studies.
Protocols differ between the studies behind these lines. ± gives the spread as reported.

| SMILES | assay | test system | conditions | scale | endpoint | result |
| --- | --- | --- | --- | --- | --- | --- |
| CN1C(=O)[C@@H](Cc2ccc(O)c(I)c2)NC(=O)CNC(=O)[C@H](Cc2ccc3ccccc3c2)NC(=O)[C@H](CCCNC(=N)N)NC(=O)[C@H]1CCCNC(=O)c1ccc(CNC(=O)CN2CCN(CC(=O)O)CCN(CC(=O)O)CC2)cc1 [fluorine-18 labelled] | biodistribution | SCID mouse, Daudi lymphoma xenograft | 1 h post-injection |  | tumour to small intestine ratio | 2.2 ± 0.4 |
| CCCC[C@H](NC(=O)CNC(=O)CNC(=O)CN1CCN(CC(=O)O)CCN(CC(=O)O)CCN(CC(=O)O)CC1)C(=O)N[C@H]1CC(=O)NCCCC[C@@H](C(N)=O)NC(=O)[C@H](Cc2c[nH]c3ccccc23)NC(=O)[C@H](CCCNC(=N)N)NC(=O)[C@@H](Cc2ccccc2)NC(=O)[C@H](Cc2c[nH]cn2)NC1=O [gallium-67 labelled] |  | female C57 mouse B16/F1 melanoma | intravenous, 0.037 MBq, 4 h |  | tumour to kidney ratio | 2.98 |
| CC(C)[C@H](NC(=O)[C@@H]1CCCN1C(=O)[C@H](CCCNC(=N)N)NC(=O)[C@H](CS)NC(=O)[C@H](Cc1c[nH]c2ccccc12)NC(=O)[C@H](CCCNC(=N)N)NC(=O)[C@@H](Cc1ccccc1)NC(=O)[C@H](Cc1c[nH]cn1)NC(=O)[C@H](CCC(=O)O)NC(=O)[C@H](CS)NC(=O)[C@H](CS)NC(=O)CNC(=O)[C@@H]1CC(=O)N[C@@H](CCCNC(=N)N)C(=O)NCC(=O)N[C@@H](CC(=O)O)C(=O)N[C@H](Cc2ccc(O)cc2)C(=O)N1)C(N)=O [technetium-99m labelled] |  | C57 mouse, female, B16/F1 melanoma | intravenous, 0.037 MBq, 2 h | reference: tumour over lung | tumour to tissue ratio | 6.89 |
| N=C(N)NCCC[C@@H]1NC(=O)[C@H](CCCCNC(=O)CC[C@H](NC(=O)CN2CCN(CC(=O)O)CCN(CC(=O)O)CCN(CC(=O)O)CC2)C(=O)NCCCC[C@@H]2NC(=O)[C@@H](Cc3ccccc3)NC(=O)[C@H](CC(=O)O)NC(=O)CNC(=O)[C@H](CCCNC(=N)N)NC2=O)NC(=O)[C@@H](Cc2ccccc2)NC(=O)[C@H](CC(=O)O)NC(=O)CNC1=O [gallium-68 labelled] |  | female nude BALB/c mouse, SK-RC-52 xenograft, tumour | intravenous, 2 h |  | tumour uptake | 5.24 ± 0.27 %ID/g |
| CCCC[C@H](NC(=O)CN1CCC(NC(=O)CN2CCN(CC(=O)O)CCN(CC(=O)O)CCN(CC(=O)O)CC2)CC1)C(=O)N[C@H]1CC(=O)NCCCC[C@@H](C(N)=O)NC(=O)[C@H](Cc2c[nH]c3ccccc23)NC(=O)[C@H](CCCNC(=N)N)NC(=O)[C@@H](Cc2ccccc2)NC(=O)[C@H](Cc2c[nH]cn2)NC1=O [gallium-68 labelled] | biodistribution | C57BL/6J mouse male tumour-bearing | 1 h post injection, unblocked | reference: tumour over bone | tumour to bone ratio | 35.4 ± 15.3 |
| CC(F)C(=O)NC[C@@H]1O[C@H](C(=O)N[C@@H](CCC(=O)NCCCC[C@@H]2NC(=O)[C@@H](Cc3ccc(O)cc3)NC(=O)[C@H](CC(=O)O)NC(=O)CNC(=O)[C@H](CCCNC(=N)N)NC2=O)C(=O)NCCCC[C@@H]2NC(=O)[C@@H](Cc3ccc(O)cc3)NC(=O)[C@H](CC(=O)O)NC(=O)CNC(=O)[C@H](CCCNC(=N)N)NC2=O)[C@H](O)[C@H](O)[C@H]1O (stereo partly drawn) [fluorine-18 labelled] | microPET imaging | female athymic nude mouse, U-87 MG xenograft, U-87 MG tumour | intravenous, 3.7 MBq, 2 h post-injection |  | tumour uptake | 2.13 ± 0.17 %ID/g |
| Cc1nc(NC(=O)N2CCC[C@H]2C(N)=O)sc1-c1csc(C(C)(C)C)n1 |  | mouse SK-OV-3 xenograft, tumour | intraperitoneal, 100 mg/kg single, 6 h |  | tumour concentration | 16 ± 1.3 µM |
| CC(F)C(=O)NC[C@@H]1O[C@H](C(=O)NCCCC[C@@H]2NC(=O)[C@@H](Cc3ccc(O)cc3)NC(=O)[C@H](CC(=O)O)NC(=O)CNC(=O)[C@H](CCCNC(=N)N)NC2=O)[C@H](O)[C@H](O)[C@H]1O (stereo partly drawn) [fluorine-18 labelled] | microPET | female athymic nude mouse, U-87 MG xenograft, U-87 MG tumour | intravenous, 3.7 MBq, 20 min |  | tumour uptake | 1.95 ± 0.25 %ID/g |
| CCCC[C@H](NC(=O)[C@H](CCC(=O)O)NC(=O)CNC(=O)CN1CCN(CC(=O)O)CCN(CC(=O)O)CCN(CC(=O)O)CC1)C(=O)N[C@H]1CC(=O)NCCCC[C@@H](C(N)=O)NC(=O)[C@H](Cc2c[nH]c3ccccc23)NC(=O)[C@H](CCCNC(=N)N)NC(=O)[C@@H](Cc2ccccc2)NC(=O)[C@H](Cc2c[nH]cn2)NC1=O [indium-111 labelled] |  | C57 mouse, B16/F1 melanoma | 4 h | reference: tumour over skin | tumour to skin uptake ratio | 44.2 |
| CC(F)C(=O)NCCOCCOCCOCC(=O)N[C@@H](CCC(=O)NCCCC[C@@H]1NC(=O)[C@@H](Cc2ccc(O)cc2)NC(=O)[C@H](CC(=O)O)NC(=O)CNC(=O)[C@H](CCCNC(=N)N)NC1=O)C(=O)NCCCC[C@@H]1NC(=O)[C@@H](Cc2ccc(O)cc2)NC(=O)[C@H](CC(=O)O)NC(=O)CNC(=O)[C@H](CCCNC(=N)N)NC1=O (stereo partly drawn) [fluorine-18 labelled] | microPET imaging | female athymic nude mouse, U-87 MG xenograft, U-87 MG tumour | intravenous, 3.7 MBq, 1 h post-injection |  | tumour uptake | 2.8 ± 0.46 %ID/g |
| CC(C)C[C@H](NC(=O)C[C@H](O)[C@H](CC(C)C)NC(=O)[C@H](Cc1c[nH]cn1)NC(=O)CNC(=O)[C@@H](NC(=O)[C@H](C)NC(=O)[C@H](Cc1c[nH]c2ccccc12)NC(=O)[C@H](CCC(N)=O)NC(=O)[C@@H](Cc1ccccc1)NC(=O)CCNC(=O)CCNC(=O)CN1CCN(CC(=O)O)CCN(CC(=O)O)CCN(CC(=O)O)CC1)C(C)C)C(N)=O [lutetium-177 labelled] | MIRD dosimetry | mouse, PC-3 xenograft | intraperitoneal, 50 MBq |  | tumour absorbed dose | 11 Gy |
| CCCC[C@H](NC(=O)CNC(=O)CNC(=O)CN1CCN(CC(=O)O)CCN(CC(=O)O)CCN(CC(=O)O)CC1)C(=O)N[C@H]1CC(=O)NCCCC[C@@H](C(N)=O)NC(=O)[C@H](Cc2c[nH]c3ccccc23)NC(=O)[C@H](CCCNC(=N)N)NC(=O)[C@@H](Cc2ccccc2)NC(=O)[C@H](Cc2c[nH]cn2)NC1=O [indium-111 labelled] |  | C57 mouse, B16/F1 melanoma | 24 h | reference: tumour over skin | tumour to skin uptake ratio | 26 |
